Experimental data of several laboratories.
Each numbered part is a random draw from the data of one study; scales do not carry over between parts. Positions count from the first letter of the parent shown.

Series 1 — target: CREB5, bZIP domain (human); method: DHFR protein complementation; sample: yeast; baseline: wild-type JUN-FOS pair; direction: higher = stronger binding
Setting: single substitutions, most at no-binding floor
Parent: JUN, bZIP domain (human); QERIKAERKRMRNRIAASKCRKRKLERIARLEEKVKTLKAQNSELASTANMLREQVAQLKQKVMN; partner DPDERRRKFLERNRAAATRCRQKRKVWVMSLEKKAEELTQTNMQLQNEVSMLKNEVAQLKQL
`A49H` has a binding fitness of -1.12 natural log.
With `E32V` the binding fitness was -0.475 natural log.
With `S47N` the binding fitness was -0.246 natural log.
`V35I` gave a binding fitness of -0.0735 natural log.
`E44L` gave a binding fitness of -0.475 natural log.
For `L38Q`, the binding fitness was -1.39 natural log.
For `L38S`, the binding fitness was -1.4 natural log.
With `K39N` the binding fitness was -0.439 natural log.

Series 2 — method: aptamer microarray, sandwich; molecule type: DNA with 2'F-ANA; sample: in vitro; tested at: 200 nM; together with: Cy3 exosite-II aptamer, 400 nM; direction: higher = stronger binding; strand: GGTTGGTGTGGTTGG
Target: Prothrombin, mature alpha-thrombin (F2, Homo sapiens, UniProt P00734)
Setting: whole 15-mer aptamer, many near background
`2'F-ANA at 2 3 4 5 6 7 10 12 13` — result for “mean fluorescence intensity”: 52.7 a.u.
For `2'F-ANA at 2 3 4 5 6 7 10 11 13 14`, “mean fluorescence intensity” read 47.9 a.u.
`2'F-ANA at 2 4 11 15` — result for “mean fluorescence intensity”: 262 a.u.
For `2'F-ANA at 2 4 5 6 11 13 14`, “mean fluorescence intensity” read 45.9 a.u.
`2'F-ANA at 2 3 4 6 8 10 11 13 14` — result for “mean fluorescence intensity”: 129 a.u.
For `2'F-ANA at 1 3 4 5 6 7 8 9 10 11 12 13`, “mean fluorescence intensity” read 62 a.u.
`2'F-ANA at 1 2 3 4 6 7 9 10 13 14 15` — result for “mean fluorescence intensity”: 57.2 a.u.
`2'F-ANA at 2 3 4 11 12 14` — result for “mean fluorescence intensity”: 381 a.u.

Series 3 — target: OGT, full length, His-tagged (human); method: phage display, sequencing; sample: in vitro; tested at: 1 µg OGT; baseline: input library; direction: higher = stronger binding
Setting: single substitutions, 15-mer displayed peptide, unchanged parent 16.7
Parent: peptide; NSEYMPQYQIIFAHQ; partner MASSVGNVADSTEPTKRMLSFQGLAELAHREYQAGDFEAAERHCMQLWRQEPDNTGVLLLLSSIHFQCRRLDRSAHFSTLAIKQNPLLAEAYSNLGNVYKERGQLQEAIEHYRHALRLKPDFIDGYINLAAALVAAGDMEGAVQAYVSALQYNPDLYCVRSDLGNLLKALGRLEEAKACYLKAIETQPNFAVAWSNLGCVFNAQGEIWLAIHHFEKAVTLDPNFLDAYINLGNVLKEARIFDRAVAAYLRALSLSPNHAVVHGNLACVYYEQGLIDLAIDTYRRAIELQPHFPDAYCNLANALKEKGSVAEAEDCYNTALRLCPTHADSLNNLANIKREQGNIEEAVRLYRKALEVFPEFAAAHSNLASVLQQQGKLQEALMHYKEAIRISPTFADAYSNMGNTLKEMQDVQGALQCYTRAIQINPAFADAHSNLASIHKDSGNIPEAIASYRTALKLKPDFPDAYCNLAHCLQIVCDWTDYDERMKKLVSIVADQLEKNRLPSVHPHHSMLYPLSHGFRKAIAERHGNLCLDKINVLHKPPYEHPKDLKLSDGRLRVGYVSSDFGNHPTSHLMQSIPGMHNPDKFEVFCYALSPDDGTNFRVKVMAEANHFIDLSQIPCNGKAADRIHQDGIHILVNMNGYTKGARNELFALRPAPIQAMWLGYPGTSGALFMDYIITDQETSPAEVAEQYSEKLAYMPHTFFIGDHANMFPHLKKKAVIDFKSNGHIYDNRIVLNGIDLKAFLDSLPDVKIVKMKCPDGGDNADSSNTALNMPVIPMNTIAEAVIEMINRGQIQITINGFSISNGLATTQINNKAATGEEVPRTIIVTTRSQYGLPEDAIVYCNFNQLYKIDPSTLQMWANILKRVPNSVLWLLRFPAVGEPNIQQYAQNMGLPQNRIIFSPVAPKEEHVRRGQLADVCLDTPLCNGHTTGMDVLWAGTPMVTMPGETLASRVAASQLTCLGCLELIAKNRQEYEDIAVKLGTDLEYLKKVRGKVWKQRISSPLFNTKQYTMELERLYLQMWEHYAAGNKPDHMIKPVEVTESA
For `Q7K`, the fold enrichment was 18.2 fold.
`Y8R` gave a fold enrichment of 0.594 fold.
`A13S` gave a fold enrichment of 23.7 fold.
For `N1F`, the fold enrichment was 17.6 fold.
With `M5W` the fold enrichment was 11.5 fold.
The fold enrichment of `I10A` is reported as 0.71 fold.
`E3H` has a fold enrichment of 9.31 fold.
`I11L` gave a fold enrichment of 12.5 fold.

Further values, each from its own experiment
Parent: viral docking peptide; KKAKRRLFTISDS; partner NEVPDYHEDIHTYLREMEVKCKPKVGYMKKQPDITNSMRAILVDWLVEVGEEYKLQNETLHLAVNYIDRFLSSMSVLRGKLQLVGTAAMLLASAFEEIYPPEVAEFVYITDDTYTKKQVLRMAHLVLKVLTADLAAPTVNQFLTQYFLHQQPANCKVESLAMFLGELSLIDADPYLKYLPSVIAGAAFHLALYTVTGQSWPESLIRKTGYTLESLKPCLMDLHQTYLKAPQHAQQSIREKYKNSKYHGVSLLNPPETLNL
For `R5K F8L`, “normalised enrichment score” read 0.94 (CCNA2, cyclin fold, Cln2 fusion (human); yeast growth competition, sequencing; yeast; strong parent motif; baseline: not given, higher = stronger binding).

For quick reference, copied from above (series 3):
For `N1F`, the fold enrichment was 17.6 fold.
With `M5W` the fold enrichment was 11.5 fold.
The fold enrichment of `I10A` is reported as 0.71 fold.
`E3H` has a fold enrichment of 9.31 fold.
